Experimental data pooled from the literature.
Parts stem from different laboratories: compare values within a part only.
UniProt Q13557, sequence (whole entry, looked up): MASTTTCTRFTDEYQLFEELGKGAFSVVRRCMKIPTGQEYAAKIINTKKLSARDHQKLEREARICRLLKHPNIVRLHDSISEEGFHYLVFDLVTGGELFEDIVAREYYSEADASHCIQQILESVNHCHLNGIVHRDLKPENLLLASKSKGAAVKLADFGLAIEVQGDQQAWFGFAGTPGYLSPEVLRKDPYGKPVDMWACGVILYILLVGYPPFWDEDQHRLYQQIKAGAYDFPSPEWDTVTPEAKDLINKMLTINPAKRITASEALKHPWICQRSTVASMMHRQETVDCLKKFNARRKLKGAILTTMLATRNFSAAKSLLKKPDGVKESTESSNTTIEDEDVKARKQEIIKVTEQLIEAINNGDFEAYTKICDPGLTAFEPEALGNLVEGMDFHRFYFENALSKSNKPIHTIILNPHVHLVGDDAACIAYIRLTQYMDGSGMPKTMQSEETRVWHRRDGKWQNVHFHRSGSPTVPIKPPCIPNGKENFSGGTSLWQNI
UniProt P07948, sequence (whole entry, looked up): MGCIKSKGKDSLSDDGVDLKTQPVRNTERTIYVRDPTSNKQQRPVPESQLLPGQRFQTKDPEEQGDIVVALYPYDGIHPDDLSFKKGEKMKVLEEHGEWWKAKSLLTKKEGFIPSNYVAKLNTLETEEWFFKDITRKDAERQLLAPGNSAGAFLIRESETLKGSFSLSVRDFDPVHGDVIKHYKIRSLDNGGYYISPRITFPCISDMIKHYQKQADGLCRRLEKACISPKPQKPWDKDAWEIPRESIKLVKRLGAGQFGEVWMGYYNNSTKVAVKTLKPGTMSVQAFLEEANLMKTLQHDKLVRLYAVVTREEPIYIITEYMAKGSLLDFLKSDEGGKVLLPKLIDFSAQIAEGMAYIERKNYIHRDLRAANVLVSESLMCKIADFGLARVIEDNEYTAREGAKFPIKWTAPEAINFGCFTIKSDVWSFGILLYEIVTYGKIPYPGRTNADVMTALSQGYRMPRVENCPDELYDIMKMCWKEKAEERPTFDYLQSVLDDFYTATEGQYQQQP
UniProt Q8N568, sequence (whole entry, looked up): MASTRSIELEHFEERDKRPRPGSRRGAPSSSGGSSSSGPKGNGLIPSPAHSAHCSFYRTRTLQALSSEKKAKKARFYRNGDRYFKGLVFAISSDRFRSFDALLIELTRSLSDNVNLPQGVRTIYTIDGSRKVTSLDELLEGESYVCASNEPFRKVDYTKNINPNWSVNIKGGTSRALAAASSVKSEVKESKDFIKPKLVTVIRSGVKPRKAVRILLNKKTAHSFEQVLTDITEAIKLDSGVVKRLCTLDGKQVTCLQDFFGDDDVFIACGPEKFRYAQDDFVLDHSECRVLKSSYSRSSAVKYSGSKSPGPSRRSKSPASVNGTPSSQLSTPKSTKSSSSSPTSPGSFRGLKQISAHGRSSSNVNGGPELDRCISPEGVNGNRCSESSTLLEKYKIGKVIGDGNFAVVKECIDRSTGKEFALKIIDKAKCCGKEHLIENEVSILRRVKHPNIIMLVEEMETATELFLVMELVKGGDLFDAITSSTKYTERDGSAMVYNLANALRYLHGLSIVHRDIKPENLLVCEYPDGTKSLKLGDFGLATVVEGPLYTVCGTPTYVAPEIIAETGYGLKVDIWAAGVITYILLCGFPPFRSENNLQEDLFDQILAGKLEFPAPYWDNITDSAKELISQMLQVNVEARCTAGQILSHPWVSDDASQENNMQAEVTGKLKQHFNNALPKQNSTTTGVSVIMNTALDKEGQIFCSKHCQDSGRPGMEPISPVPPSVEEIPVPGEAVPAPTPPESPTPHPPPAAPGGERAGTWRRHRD
UniProt P51957, sequence (whole entry, looked up): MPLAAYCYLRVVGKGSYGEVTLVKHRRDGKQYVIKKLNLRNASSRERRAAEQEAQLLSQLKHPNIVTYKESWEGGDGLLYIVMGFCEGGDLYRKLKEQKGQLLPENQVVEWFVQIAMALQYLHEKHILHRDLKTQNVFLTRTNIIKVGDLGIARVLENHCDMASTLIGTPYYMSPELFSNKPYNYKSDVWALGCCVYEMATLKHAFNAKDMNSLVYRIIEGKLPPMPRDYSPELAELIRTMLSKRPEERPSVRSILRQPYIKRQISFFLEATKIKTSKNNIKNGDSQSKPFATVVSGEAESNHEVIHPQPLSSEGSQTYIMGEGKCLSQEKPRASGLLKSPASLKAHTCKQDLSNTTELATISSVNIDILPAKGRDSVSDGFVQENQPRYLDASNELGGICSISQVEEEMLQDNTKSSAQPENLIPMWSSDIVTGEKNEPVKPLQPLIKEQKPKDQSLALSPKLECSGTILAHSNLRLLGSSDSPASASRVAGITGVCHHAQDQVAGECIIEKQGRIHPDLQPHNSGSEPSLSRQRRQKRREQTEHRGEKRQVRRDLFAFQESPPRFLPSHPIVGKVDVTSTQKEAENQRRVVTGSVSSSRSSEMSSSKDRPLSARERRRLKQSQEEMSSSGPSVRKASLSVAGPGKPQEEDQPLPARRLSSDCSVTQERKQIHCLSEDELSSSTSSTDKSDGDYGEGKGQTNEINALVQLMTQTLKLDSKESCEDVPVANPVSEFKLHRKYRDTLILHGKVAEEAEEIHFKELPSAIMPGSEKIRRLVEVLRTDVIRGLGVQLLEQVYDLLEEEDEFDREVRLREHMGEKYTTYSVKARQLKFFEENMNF
UniProt Q9HC98, sequence (whole entry, looked up): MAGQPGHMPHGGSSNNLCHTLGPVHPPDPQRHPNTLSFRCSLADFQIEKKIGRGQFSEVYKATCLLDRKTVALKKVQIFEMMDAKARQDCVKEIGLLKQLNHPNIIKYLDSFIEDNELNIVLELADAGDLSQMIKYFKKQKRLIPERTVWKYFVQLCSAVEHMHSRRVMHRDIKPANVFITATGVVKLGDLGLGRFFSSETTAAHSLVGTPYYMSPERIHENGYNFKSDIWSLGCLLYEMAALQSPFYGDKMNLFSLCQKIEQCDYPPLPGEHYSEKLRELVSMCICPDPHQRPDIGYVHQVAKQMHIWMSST
UniProt Q14164, sequence (whole entry, looked up): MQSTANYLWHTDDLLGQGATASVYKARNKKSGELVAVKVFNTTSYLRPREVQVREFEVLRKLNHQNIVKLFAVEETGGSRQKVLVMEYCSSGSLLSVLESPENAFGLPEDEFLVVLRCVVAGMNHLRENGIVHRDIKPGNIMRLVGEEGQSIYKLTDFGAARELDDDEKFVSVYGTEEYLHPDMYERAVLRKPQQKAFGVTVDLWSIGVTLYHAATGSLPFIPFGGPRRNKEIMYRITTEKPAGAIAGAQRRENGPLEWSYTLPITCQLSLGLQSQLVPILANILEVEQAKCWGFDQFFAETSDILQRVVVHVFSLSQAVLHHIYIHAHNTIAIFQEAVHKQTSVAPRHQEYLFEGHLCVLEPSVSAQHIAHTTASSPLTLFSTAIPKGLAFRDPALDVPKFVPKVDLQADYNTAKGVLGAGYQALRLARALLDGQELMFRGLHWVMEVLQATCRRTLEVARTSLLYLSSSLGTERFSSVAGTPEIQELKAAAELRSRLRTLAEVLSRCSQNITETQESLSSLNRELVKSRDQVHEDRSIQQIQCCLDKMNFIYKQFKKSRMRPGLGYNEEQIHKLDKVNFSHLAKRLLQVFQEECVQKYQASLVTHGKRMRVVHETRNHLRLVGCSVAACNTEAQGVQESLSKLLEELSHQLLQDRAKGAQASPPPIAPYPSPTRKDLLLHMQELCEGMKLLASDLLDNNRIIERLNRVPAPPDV
UniProt P51955, sequence (whole entry, looked up): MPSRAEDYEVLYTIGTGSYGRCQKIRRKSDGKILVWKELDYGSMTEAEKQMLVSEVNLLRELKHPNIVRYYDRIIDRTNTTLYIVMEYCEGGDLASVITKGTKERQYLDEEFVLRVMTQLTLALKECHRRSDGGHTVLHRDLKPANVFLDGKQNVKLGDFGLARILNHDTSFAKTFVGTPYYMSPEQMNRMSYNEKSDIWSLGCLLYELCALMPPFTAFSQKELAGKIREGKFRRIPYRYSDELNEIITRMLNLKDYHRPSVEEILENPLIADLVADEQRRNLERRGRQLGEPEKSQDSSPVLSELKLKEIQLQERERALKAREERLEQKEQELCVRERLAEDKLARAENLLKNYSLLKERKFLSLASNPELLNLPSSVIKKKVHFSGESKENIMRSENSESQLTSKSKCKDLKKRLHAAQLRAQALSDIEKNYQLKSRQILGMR
UniProt P51817, sequence (whole entry, looked up): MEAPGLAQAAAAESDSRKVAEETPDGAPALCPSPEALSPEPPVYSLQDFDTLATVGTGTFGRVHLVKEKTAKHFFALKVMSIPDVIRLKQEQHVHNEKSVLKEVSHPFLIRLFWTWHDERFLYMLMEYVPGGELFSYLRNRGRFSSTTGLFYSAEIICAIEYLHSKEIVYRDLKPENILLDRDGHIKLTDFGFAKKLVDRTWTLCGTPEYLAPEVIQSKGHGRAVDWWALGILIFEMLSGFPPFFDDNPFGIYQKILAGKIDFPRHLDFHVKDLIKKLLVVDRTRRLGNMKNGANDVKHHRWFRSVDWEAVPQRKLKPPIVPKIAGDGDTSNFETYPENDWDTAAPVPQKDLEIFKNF
UniProt Q00535, sequence (whole entry, looked up): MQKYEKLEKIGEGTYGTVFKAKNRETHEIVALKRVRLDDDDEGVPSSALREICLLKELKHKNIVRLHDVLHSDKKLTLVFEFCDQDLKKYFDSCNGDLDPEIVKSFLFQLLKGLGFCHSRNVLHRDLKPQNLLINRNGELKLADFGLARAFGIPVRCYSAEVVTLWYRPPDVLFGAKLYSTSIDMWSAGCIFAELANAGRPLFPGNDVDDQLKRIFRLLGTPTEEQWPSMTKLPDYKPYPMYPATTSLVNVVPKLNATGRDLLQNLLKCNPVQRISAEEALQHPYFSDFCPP

Study 1 — cell line: HaCaT; tested at: 100 µM; time: 36 h
SMILES | viability [%]
O=C(O[C@H]1CN2CCC1CC2)N1CCc2ccccc2[C@@H]1c1ccccc1 | 5.37
O=C(O)c1cc(O)c2c(c1)[C@H]([C@H]1c3cc(C(=O)O)cc(O)c3C(=O)c3c(O[C@@H]4O[C@H](CO)[C@@H](O)[C@H](O)[C@H]4O)cccc31)c1cccc(O[C@@H]3O[C@H](CO)[C@@H](O)[C@H](O)[C@H]3O)c1C2=O | 80.6
CC[C@@H]1/C=C(\C)C[C@H](C)C[C@H](OC)[C@H]2O[C@@](O)(C(=O)C(=O)N3CCCC[C@H]3C(=O)O[C@H](/C(C)=C/[C@@H]3CC[C@H](Cl)[C@H](OC)C3)[C@H](C)[C@@H](O)CC1=O)[C@H](C)C[C@@H]2OC | 92
CN1[C@@H]2CCC[C@H]1C[C@@H](NC(=O)c1nn(C)c3ccccc13)C2 | 83.2
OCc1ccccc1 | 73.5
COCCOC(=O)C1=C(C)NC(C)=C(C(=O)OC/C=C/c2ccccc2)C1c1cccc([N+](=O)[O-])c1 (centres unmarked) | 45.4
CCC(Cc1c(I)cc(I)c(N)c1I)C(=O)O (centres unmarked) | 59.6
COc1cc([C@@H]2c3cc4c(cc3[C@@H](O[C@@H]3O[C@@H]5CO[C@@H](c6cccs6)O[C@H]5[C@H](O)[C@H]3O)[C@H]3COC(=O)[C@H]23)OCO4)cc(OC)c1O | 15.3
CCC(=O)O[C@@H](O[P@](=O)(CCCCc1ccccc1)CC(=O)N1C[C@H](C2CCCCC2)C[C@H]1C(=O)O)C(C)C | 97.3
N#CC1(c2ccc(NC(=O)c3cccnc3NCc3ccncc3)cc2)CCCC1 | 25.3
NC(=O)OCC(COC(N)=O)c1ccccc1 | 93.8
N[C@@H](CCC(=O)N[C@@H](CS)C(=O)NCC(=O)O)C(=O)O | 83.9
CCCCCCCCOc1ccccc1C(=O)Nc1ccc(C(=O)OCC[N+](C)(CC)CC)cc1 | 6.02
CO[C@]12C[C@@H](COC(=O)c3cncc(Br)c3)CN(C)[C@@H]1Cc1cn(C)c3cccc2c13 | 5.41
CC(=O)OCC(CCn1cnc2cnc(N)nc21)COC(C)=O | 94.3
CC(=O)OCC1=C(C(=O)O)N2C(=O)[C@@H](NC(=O)Cc3cccs3)[C@H]2SC1 | 108
CCOC(N)=O | 89.3
Brc1c(NC2=NCCN2)ccc2nccnc12 | 67.2
Cc1ccc(C(=O)c2ccc(CC(=O)O)n2C)cc1 | 79.4

Study 2 — host: mouse; sample: microsomes or S9; tested at: 2 µM; time: 0.5 h
Compound | remaining compound
COc1nc(OCC(=O)c2ccccc2)nc(OC)c1Br | 0.386%
COc1ccc(C(=O)C2=CN(c3ccc(C#N)cc3)c3cc(F)ccc3S2(=O)=O)cc1 | 63.5%
CCCn1nc(C)c(-c2cncn2Cc2cccc(OC(C)C)c2)c1C | 1.43%
CCn1c(CO)nnc1[C@H]1C[C@@H](NC(=O)CCn2c(C)cccc2=O)C1 | > 100%
COc1ncnc(N)c1CNCCC1=CCOCC1 | 10.6%
O=C(C1CC(=O)N(c2n[nH]c3ccccc23)C1)N1CCC(c2noc3cc(F)ccc23)CC1 (centres unmarked) | 63.4%
CN(C)C(=O)COCC(=O)Nc1ccc(C#N)cc1 | 1.79%
Cc1nc2nc(Cl)n(Cc3ccc(-c4cc(CC(C)C)sc4S(=O)(=O)NC(C)(C)C)cc3)c2cc1-c1ccccc1 | < 1%
C(=N\n1cnnc1)/c1cn(-c2cccs2)nc1-c1ccccc1 | 31.5%
Cc1nc(COc2ccc(C(=O)Nc3ccc(S(=O)(=O)/N=c4/o[nH]c(C)c4C)cc3)cc2)cs1 | 41.2%
O=C1C(N2CCC3(CCOCC3)C2)CCN1c1cccc(Cl)c1 (centres unmarked) | 14.8%
C[S+]([O-])c1nc(-c2cccs2)cc(-c2ccccc2)c1C#N (centres unmarked) | 2.55%

Study 3 — method: competition with immobilised ligand; tested at: 1 µM
Structure (SMILES): CC(=O)Nc1c(C(C)=O)c(=O)n(C)c2nc(-c3ccc(Cl)cc3Cl)c(-c3ccc(Cl)cc3)cc12
target | assay | remaining binding [%]
Calcium/calmodulin-dependent protein kinase type IV (CAMK4, Homo sapiens, UniProt Q16566) | cell-free assay | 100
Cyclin-dependent kinase 11A (CDK11A, Homo sapiens, UniProt Q9UQ88) | binding | 100
Cyclin-dependent kinase 2 (CDK2, Homo sapiens, UniProt P24941) | cell-free assay | 100
MAP kinase-activated protein kinase 2 (MAPKAPK2, Homo sapiens, UniProt P49137) | cell-free assay | 100
Homeodomain-interacting protein kinase 3 (HIPK3, Homo sapiens, UniProt Q9H422) | cell-free assay | 97
Mast/stem cell growth factor receptor Kit (KIT, Homo sapiens, UniProt P10721, D816H) | cell-free assay | 100
ALK tyrosine kinase receptor (ALK, Homo sapiens, UniProt Q9UM73, C1156Y) | cell-free assay | 100
Receptor-type tyrosine-protein kinase FLT3 (FLT3, Homo sapiens, UniProt P36888, D835V) | cell-free assay | 82
cAMP-dependent protein kinase catalytic subunit PRKX (PRKX, Homo sapiens, UniProt P51817) | cell-free assay | 100
Interleukin-1 receptor-associated kinase 3 (IRAK3, Homo sapiens, UniProt Q9Y616) | cell-free assay | 95
Ephrin type-B receptor 2 (EPHB2, Homo sapiens, UniProt P29323) | cell-free assay | 100
Receptor-type tyrosine-protein kinase FLT3 (FLT3, Homo sapiens, UniProt P36888, K663Q) | cell-free assay | 100
Serine/threonine-protein kinase Nek6 (NEK6, Homo sapiens, UniProt Q9HC98) | cell-free assay | 100
Aurora kinase A (AURKA, Homo sapiens, UniProt O14965) | cell-free assay | 100
Tyrosine-protein kinase ABL1, phosphorylated (ABL1, Homo sapiens, UniProt P00519, Y253F) | cell-free assay | 96
Leukocyte tyrosine kinase receptor (LTK, Homo sapiens, UniProt P29376) | cell-free assay | 100
Receptor-type tyrosine-protein kinase FLT3 (FLT3, Homo sapiens, UniProt P36888, D835Y) | cell-free assay | 100
Serine/threonine-protein kinase DCLK2 (DCLK2, Homo sapiens, UniProt Q8N568) | cell-free assay | 100
Serine/threonine-protein kinase RIO3 (RIOK3, Homo sapiens, UniProt O14730) | cell-free assay | 100
Dual specificity mitogen-activated protein kinase kinase 6 (MAP2K6, Homo sapiens, UniProt P52564) | cell-free assay | 100
Proto-oncogene tyrosine-protein kinase receptor Ret (RET, Homo sapiens, UniProt P07949, M918T) | cell-free assay | 100
Calcium/calmodulin-dependent protein kinase type II subunit delta (CAMK2D, Homo sapiens, UniProt Q13557) | cell-free assay | 100
Tyrosine-protein kinase Lyn (LYN, Homo sapiens, UniProt P07948) | cell-free assay | 100
Serine/threonine-protein kinase Nek4 (NEK4, Homo sapiens, UniProt P51957) | cell-free assay | 100
Rho-associated protein kinase 2 (ROCK2, Homo sapiens, UniProt O75116) | cell-free assay | 100

Study 4 — Structure (SMILES): CCOc1cc2ncnc(Nc3cccc(Br)c3)c2cc1OCC; observed: enzyme activity; mode: inhibitor; tested at: 0.5 µM; baseline: control
target | remaining activity [%]
TGF-beta receptor type-2 (TGFBR2, Homo sapiens, UniProt P37173) | 83.4
TGF-beta receptor type-1 (TGFBR1, Homo sapiens, UniProt P36897) | 96.9
Inhibitor of nuclear factor kappa-B kinase subunit beta (IKBKB, Homo sapiens, UniProt O14920) | 102
Serine/threonine-protein kinase Nek2 (NEK2, Homo sapiens, UniProt P51955) | 98.7
Inhibitor of nuclear factor kappa-B kinase subunit epsilon (IKBKE, Homo sapiens, UniProt Q14164) | 98.7
Serine/threonine-protein kinase OSR1 (OXSR1, Homo sapiens, UniProt O95747) | 102
STE20/SPS1-related proline-alanine-rich protein kinase (STK39, Homo sapiens, UniProt Q9UEW8) | 110
Mitogen-activated protein kinase kinase kinase 3 (MAP3K3, Homo sapiens, UniProt Q99759) | 92.9
Mitogen-activated protein kinase 9 (MAPK9, Homo sapiens, UniProt P45984) | 98.5
Death-associated protein kinase 1 (DAPK1, Homo sapiens, UniProt P53355) | 77.4
G protein-coupled receptor kinase 3 (GRK3, Homo sapiens, UniProt P35626) | 93.8
Serine/threonine-protein kinase Chk2 (CHEK2, Homo sapiens, UniProt O96017) | 92
Protein kinase C alpha type (PRKCA, Homo sapiens, UniProt P17252) | 85.3
Serine/threonine-protein kinase 10 (STK10, Homo sapiens, UniProt O94804) | 30.5
Calcium/calmodulin-dependent protein kinase type II subunit delta (CAMK2D, Homo sapiens, UniProt Q13557) | 87
Serine/threonine-protein kinase STK11 (STK11, Homo sapiens, UniProt Q15831) | 88
Cyclin-dependent kinase 4, with cyclin D1 (CDK4, Homo sapiens, UniProt P11802) | 94.2
Cyclin-dependent kinase 5, with p25 (CDK5, Homo sapiens, UniProt Q00535) | 89.5
Death-associated protein kinase 2 (DAPK2, Homo sapiens, UniProt Q9UIK4) | 103
Calcium/calmodulin-dependent protein kinase kinase 2 (CAMKK2, Homo sapiens, UniProt Q96RR4) | 101
Tyrosine-protein kinase Lyn, isoform B (LYN, Homo sapiens, UniProt P07948) | 49.5
cAMP-dependent protein kinase catalytic subunit alpha (PRKACA, Homo sapiens, UniProt P17612) | 98.9
Protein kinase C beta type, isoform beta-I (PRKCB, Homo sapiens, UniProt P05771) | 100
cGMP-dependent protein kinase 1, isoform beta (PRKG1, Homo sapiens, UniProt Q13976) | 96

For quick reference, copied from above (study 1):
SMILES | viability [%]
N[C@@H](CCC(=O)N[C@@H](CS)C(=O)NCC(=O)O)C(=O)O | 83.9
NC(=O)OCC(COC(N)=O)c1ccccc1 | 93.8
CCCCCCCCOc1ccccc1C(=O)Nc1ccc(C(=O)OCC[N+](C)(CC)CC)cc1 | 6.02
Brc1c(NC2=NCCN2)ccc2nccnc12 | 67.2
CCC(=O)O[C@@H](O[P@](=O)(CCCCc1ccccc1)CC(=O)N1C[C@H](C2CCCCC2)C[C@H]1C(=O)O)C(C)C | 97.3
O=C(O[C@H]1CN2CCC1CC2)N1CCc2ccccc2[C@@H]1c1ccccc1 | 5.37
